Published values of several laboratories.
± gives the spread as reported.

For `COc1ccc2[nH]c([S+]([O-])Cc3ncc(C)c(OC)c3C)nc2c1` (stereo not drawn), “water solubility lower bound” read 6.97e-06 mole fraction (static equilibrium cell; water; 25 °C, 20 bar pressure).
`CCO[C@H]1CCN(Cc2c(OC)cc(C)c3[nH]ccc23)[C@H](c2ccc(C(=O)O)cc2)C1` has a total AUC(0-inf) of 52300 ng·h/mL (healthy volunteers, plasma; oral, 200 mg single dose, geometric mean).
`Cc1c(C(=O)O)ccc2c3n(nc12)[C@@H]1[C@H](C3)N(CC2CC2)[C@@]2(C(=O)Nc3cc(Cl)ccc32)[C@H]1c1cccc(Cl)c1F`: “adverse event incidence” 18.5% (phase Ia trial, refers to: Dysgeusia; cancer patients; oral, dose not given, all patients all grades).
For `Cc1nnc2n1-c1sc(C#Cc3cnn(C)c3)c(Cc3ccccc3)c1COC2`, tolerability read “not toxic” (mouse MDA-MB-231 xenograft; dose not given).
The solubility of `CCOC(=O)N1C[C@@H](c2cccc(Br)c2)N[C@@H](c2ccc(F)c(C#N)c2)C1` is reported as under 4 µM (shake-flask, LC-HRMS; aqueous buffer; 16 h, pH 6.8).
For `C[C@H](CCC(=O)NCC(=O)O)[C@H]1CC[C@H]2[C@@H]3CC[C@@H]4C[C@H](OS(=O)(=O)O)CC[C@]4(C)[C@H]3CC[C@]12C`, the Cmin was 380 ± 90 nM (human, plasma; control).
`Cn1ncnc1[C@H]1c2n[nH]c(=O)c3cc(F)cc(c23)N[C@@H]1c1ccc(F)cc1` gave an AUCτ of 193 ± 58 ng·h/mL (human patients, plasma; oral, 600 µg/m2/day, day 6).
`CC(C(=O)NCC(=O)NCC(CNC(=O)CNC(=O)C(C)N1CCN(CC(=O)[O-])CCN(CC(=O)[O-])CCN(CC(=O)[O-])CC1)(CNC(=O)CNC(=O)C(C)N1CCN(CC(=O)[O-])CCN(CC(=O)[O-])CCN(CC(=O)[O-])CC1)CNC(=O)CNC(=O)C(C)N1CCN(CC(=O)[O-])CCN(CC(=O)[O-])CCN(CC(=O)[O-])CC1)N1CCN(CC(=O)[O-])CCN(CC(=O)[O-])CCN(CC(=O)[O-])CC1.[Gd+3].[Gd+3].[Gd+3].[Gd+3]` (stereo not drawn) — result for “cumulative fecal excretion”: 0.04% (ICP-MS; cynomolgus monkey, feces; 1 days post-injection; reference: dose).
`O=C(Nc1ccc(OC(F)(F)Cl)cc1)c1cnc(N2CC[C@@H](O)C2)c(-c2ccn[nH]2)c1` — result for “patients with event”: 4.5% (refers to: AST increase, grade ≥2; human patients, dose-finding study; oral, 9 of sample B patients).
`O=c1[nH]c(=O)n([C@@H]2O[C@H](CO)[C@@H](O)[C@@H]2F)cc1CCC[18F]` gave a biodistribution of 0.29 ± 0.14 %ID/g (nude mice, RG2 tumour, muscle; intravenous, dose not given, 2 h).
For `Cc1ccc(Sc2ccccc2N2CCNCC2)c(C)c1`, “participants with TEAE” read 0% (refers to: Dizziness; healthy adult men; oral, 5 mg daily, 12 days).
For `CCCCCc1ccc(C(=O)Oc2ccc(C#N)c(F)c2)cc1`, the placental accumulation was 184 ± 395 ng/g (Sprague-Dawley rat, female, placenta; 5000 ng/mL in perfusate, 50 (unit not given), high dose, mixture of 21 LCMs).
For `C=CCN1CC(=O)N2[C@@H](Cc3ccc(O)cc3F)C(=O)N(Cc3cccc(N4CC(N5CCN(CC)CC5)C4)n3)C[C@@H]2N1C(=O)NCc1ccccc1`, “treatment-related decreased appetite” read 0% (advanced solid tumour patients; oral, 45 mg twice daily, grade ≥3, dose-escalation).
For `N#Cc1ccc2c(c1)[C@H]1CCCN(C(=O)c3ccc4[nH]cnc4c3)[C@H]1C2`, “minimum ACTH level” read 1.3 pmol/L (human; 20 mg, end of trial).
`CCn1cc(C(=O)N2CCOCC2)c(=O)c2cc(NC3Cc4ccccc4C3)cnc21`: “patients with adverse event” 3.7% (human, GAD, PTSD or social anxiety disorder; dose not given, TEAE Fatigue, pooled phase trials).
`CC[C@H](C)[C@H](NC(=O)CN)C(=O)N[C@@H](CC(C)C)C(=O)N[C@@H](CC(=O)O)C(=O)N[C@@H](C)C(=O)N[C@H](C(=O)N[C@@H](CC(C)C)C(=O)N[C@@H](CC(=O)O)C(=O)N[C@@H](C)C(=O)N[C@H](C(=O)N[C@@H](CCCCN)C(=O)N[C@@H](C)C(=O)N[C@H](C(=O)N[C@@H](C)C(=O)N[C@@H](CCCCN)C(=O)N[C@@H](C)C(=O)N[C@H](C(=O)N[C@@H](CCCCN)C(=O)N[C@@H](C)C(=O)N[C@@H](CCCCN)C(=O)N[C@@H](C)C(=O)NCC(N)=O)[C@@H](C)CC)[C@@H](C)CC)[C@@H](C)CC)[C@@H](C)CC` gave a helical content of 27% (circular dichroism; 10 mM PBS; 100 µM).
With `O=C(CCCCCCC(=O)Nc1ccc(CC[18F])cc1)NO` the tissue uptake was 15.3 ± 2.9 %ID/g (athymic nu/nu male mice, LNCaP xenograft, small intestine; intravenous, 0.5 h).
With `O=C(O)CCC(=O)O.[2H]C([2H])([2H])Oc1cc(C)c2[nH]ccc2c1CN1CC[C@@H](C2CC2)C[C@H]1c1ccc(C(=O)O)cc1` the TEAE hyponatremia was 0% (healthy Chinese subjects; 50 mg, single ascending dose).
For `NC1(C(=O)N[C@@H](CCO)c2ccc(Cl)cc2)CCN(c2nc[nH]c3nccc2-3)CC1`, “incidence of Erythema” read 33.3% (metastatic CRPC patients; 320 mg b.i.d., any grade, treatment-related, together with: enzalutamide 160 mg daily).
For `CNC(=O)c1ccc(-c2cnc3ncc(Cc4ccc5ncccc5c4)n3n2)cc1F`, “Lymphocyte count decreased dose reduction/interruption” read 1% (Japanese patients; oral, 400 mg, grade 3/4).
`O=C(CSc1nnc(-c2ccc([N+](=O)[O-])cc2)n1-c1ccccc1)N1CCOCC1` gave a solubility of 3.57 µg/mL (aqueous buffer; pH 7.4).
`CCC(=O)N(CCC(c1ccc2c(c1)OCO2)c1ccccc1OC)Cc1ccccc1` (stereo not drawn) has a sodium of 154 mEq/L (mouse, blood; i.p., 60 mg/kg twice daily, 2 weeks).
For `O=c1[nH]c(=O)n([C@@H]2O[C@H](CO)[C@@H](O)[C@@H]2F)cc1CCCCC[18F]`, the biodistribution was 0.27 ± 0.05 %ID/g (nude mice, RG2 tumour, liver; intravenous, dose not given, 2 h).
With `CCOC(=O)N1C[C@@H](c2cc(Cl)cc(Cl)c2)N[C@@H](c2ccc(F)c(C#N)c2)C1` the solubility was under 4 µM (shake-flask, LC-HRMS; aqueous buffer; 16 h, pH 6.8).
With `CCCCOc1ccc([C@H]2CC[C@H](CCC)CC2)c(F)c1F` the placental accumulation was 15.8 ± 14.2 ng/g (rat, placenta; 1000 ng/mL in perfusate, middle dose, mixture of 21 LCMs).
`CNC(=O)c1ccc(-c2cnc3ncc(Cc4ccc5ncccc5c4)n3n2)cc1F` — result for “patients with adverse event”: 0% (refers to: Diarrhea; cancer patients; oral, 600 mg twice daily, all expansion cohorts, grade 3-4).
`O=C(N/N=C/c1ccccc1O)c1ccncc1` has a stability of 97.9% (DMEM cell medium; 57 µM, 7 days, -80 °C, long-term storage).
Under “urinary magnesium excretion change”, `Cc1ccc([C@@H]2O[C@H](CO)[C@@H](O)[C@H](O)[C@H]2O)cc1Cc1ccc(-c2ccc(F)cc2)s1` is recorded as -7.11 mg (Japanese type 2 diabetes patients; 200 mg, day 6, 24 h urine collection; reference: baseline).
For `CCc1cc(C(=O)NC)c2nccc(N3CCc4c(cc(Cn5ccnc5)cc4-c4cn(C)nc4C(F)(F)F)C3=O)c2c1`, “red cell distribution width” read 12.5 ± 0.47% (Sprague Dawley rats; oral, 100 mg/kg twice daily, 7 days).
`COc1cc2c(cc1OC)C(=O)C(CC1CCN(Cc3ccccc3)CC1)C2` (stereo not drawn) has an FEV1/FVC of 0.492% (spirometry; human subjects; dose not given; reference: placebo).
For `CC(C)=CCC/C(C)=C/C(=O)O.Cc1cc(/C=C/C#N)cc(C)c1Nc1ccnc(Nc2ccc(C#N)cc2)n1`, equilibrium solubility read “not detected” (buffer; pH 6.8, quantification limit 50 ng/mL).
The biodistribution of `O=c1[nH]c(=O)n([C@H]2C[C@H](O)[C@@H](CO)O2)cc1CCC[18F]` is reported as 0.33 ± 0.13 %ID/g (male CD-1 nu/nu mice, RG2 tumour, skin; intravenous, dose not given, 2 h).
For `C[C@H](CCC(=O)NCC(=O)O)[C@H]1CC[C@H]2[C@@H]3CC[C@@H]4C[C@H](O)CC[C@]4(C)[C@H]3CC[C@]12C`, the Cmin was 8.46 ± 2.04 nM (human, plasma; control).
For `CC(C)(C)c1ccc([C@@H]2COC[C@H](c3ccc(Cl)cc3)N2)cc1`, the solubility was under 4 µM (shake-flask, LC-HRMS; aqueous buffer; 16 h, pH 6.8).
For `Cc1c(-c2ccc(N3CCc4cccc(C(=O)Nc5nc6ccccc6s5)c4C3)nc2C(=O)O)cnn1CC12CC3(C)CC(C)(C1)CC(OCCNCC[C@H](O)CO)(C3)C2`, “QRS duration change” read 0 ms (beagle dog, male, anaesthetised; intravenous infusion, 0.3 mg/kg/min, 15 min; reference: vehicle).
The solubility of `CCOC(=O)N1C[C@@H](c2ccc(C(C)(C)C)cc2)N[C@@H](c2ccc(N3CCCC3)cc2)C1` is reported as under 4 µM (shake-flask, LC-HRMS; aqueous buffer; 16 h, pH 6.8).
Under “cardiovascular and respiratory effects”, `Cc1cnc(N2CC3(CCOCC3)C2)c(C(=O)Nc2ccc(C(=O)N3CCc4cc(C(=O)Nc5c(C)cccc5F)sc4-c4ccccc43)cc2)c1` is recorded as “no effect” (safety pharmacology; dog; concentration not given).
For `O=c1[nH]c(=O)c(Cc2cccc(C(F)(F)F)c2)c([C@H]2CC[C@H](c3ccccc3)CC2)[nH]1`, “frozen storage stability” read 1030 days (human plasma; -20 and -70 °C).
For `CCOC(=O)N1C[C@@H](C2CCOCC2)N[C@@H]([C@H](C)CC)C1`, the solubility was over 750 µM (shake-flask, LC-HRMS; aqueous buffer; 16 h, pH 6.8).

Some of these lines once more:
`CCn1cc(C(=O)N2CCOCC2)c(=O)c2cc(NC3Cc4ccccc4C3)cnc21`: “patients with adverse event” 3.7% (human, GAD, PTSD or social anxiety disorder; dose not given, TEAE Fatigue, pooled phase trials).
With `CCOC(=O)N1C[C@@H](c2cc(Cl)cc(Cl)c2)N[C@@H](c2ccc(F)c(C#N)c2)C1` the solubility was under 4 µM (shake-flask, LC-HRMS; aqueous buffer; 16 h, pH 6.8).
`O=c1[nH]c(=O)n([C@@H]2O[C@H](CO)[C@@H](O)[C@@H]2F)cc1CCC[18F]` gave a biodistribution of 0.29 ± 0.14 %ID/g (nude mice, RG2 tumour, muscle; intravenous, dose not given, 2 h).
The solubility of `CCOC(=O)N1C[C@@H](c2cccc(Br)c2)N[C@@H](c2ccc(F)c(C#N)c2)C1` is reported as under 4 µM (shake-flask, LC-HRMS; aqueous buffer; 16 h, pH 6.8).
Under “cardiovascular and respiratory effects”, `Cc1cnc(N2CC3(CCOCC3)C2)c(C(=O)Nc2ccc(C(=O)N3CCc4cc(C(=O)Nc5c(C)cccc5F)sc4-c4ccccc43)cc2)c1` is recorded as “no effect” (safety pharmacology; dog; concentration not given).
For `C[C@H](CCC(=O)NCC(=O)O)[C@H]1CC[C@H]2[C@@H]3CC[C@@H]4C[C@H](O)CC[C@]4(C)[C@H]3CC[C@]12C`, the Cmin was 8.46 ± 2.04 nM (human, plasma; control).
